# Assay results pooled from the literature.
# Parts stem from different laboratories: compare values within a part only. Changes are numbered by the printed parent chain.

# Set 1
# Target: ABI1, truncated, D143A, DHFR fusion (Arabidopsis thaliana)
# Method: DHFR PCA, deep sequencing
# Sample: yeast
# Notes: methotrexate growth selection, single substitutions
# Added: (+)-ABA 4.8 µM
# Reference: wild-type fitted maximum
# Reading: higher = stronger binding
# Starting sequence: PYL1, truncated, DHFR fusion (Arabidopsis thaliana); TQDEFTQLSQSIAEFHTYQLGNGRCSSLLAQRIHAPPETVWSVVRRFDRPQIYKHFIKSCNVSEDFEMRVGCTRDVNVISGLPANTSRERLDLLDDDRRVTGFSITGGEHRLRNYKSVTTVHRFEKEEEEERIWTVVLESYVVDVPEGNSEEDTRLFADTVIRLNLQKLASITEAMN; partner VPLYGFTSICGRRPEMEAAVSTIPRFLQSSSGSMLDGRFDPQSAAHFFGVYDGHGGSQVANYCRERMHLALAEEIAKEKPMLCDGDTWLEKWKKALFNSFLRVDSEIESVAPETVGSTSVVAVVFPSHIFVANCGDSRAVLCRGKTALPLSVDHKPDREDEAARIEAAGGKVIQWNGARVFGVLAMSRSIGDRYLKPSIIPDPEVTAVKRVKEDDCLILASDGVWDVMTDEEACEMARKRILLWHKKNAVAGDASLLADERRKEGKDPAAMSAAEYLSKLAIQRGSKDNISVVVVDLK
Variant,relative binding score [%]
G108Q,-9.98
L82H,17.3
T154S,9.74
I133K,70
R24Q,86.4
R123I,-0.112
K168H,72.8
R46W,-2.83
L166M,25.1
N177A,96.2
I162D,-8.95
T160L,62.2
R111W,-2.45
H55Y,65.4
M176E,57.9
V121I,60.2
K168S,82.2
Q167H,55.1

# Set 2
# Target: RNA binding protein fox-1 homolog 2, RRM domain, GST-SBP tag (RBFOX2, Homo sapiens, UniProt O43251-10, residues 100-194)
# Method: RNA Bind-n-Seq
# Molecule type: RNA
# Sample: in vitro
# Concentration: 365 nM
# Notes: natural RNA segment, single round, ends assumed
# Reference: no-protein control
# Reading: higher = stronger binding
# All sequences stand within: GGGAGUUCUACAGUCCGACGAUC … UGGAAUUCUCGGGUGCCAA
# Residues (chain): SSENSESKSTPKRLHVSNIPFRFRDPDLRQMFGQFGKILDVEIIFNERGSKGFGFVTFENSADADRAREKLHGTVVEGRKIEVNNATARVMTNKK
Strand,RBNS enrichment (R)
AACAUCUUUAAGUGCCAUGAGUAAUUUUUCCUGACUCUGUUUCAUAGCUUUGUAAGAAUUCUGUGUCUUUAUAAGACACAGAAGCAAGGCAGGUGCUACAUAAAAAAGUA,0.345
UUCGGCAUAGACUCGUGUAUUUUACCAGCCUAUAAUCGUGCUGAGUGUUGGUUUCCUGCCCCUCCUUCCCACCUUUCUGGUUCUGCAGACUUGGAGGGGUUUAUUGACUC,0.581
GUCUCCUCCCUUCCACCUUUCUCCUUGCAUUGUGAUGAUCUAGUAGGCACGUCUGUCAACAGGACACAUGCCUCCUCUGACUAUAACCUCUUAAUAGUUGUGUAUAAUGA,0.364
GAAAGUGGGACCUAGGGCCCUGGGAGGACACCUAGCAACAGCAGGUUCCAUUUCACCUCAGAUGGCAGCUUGCCUGGCAGUGGACUUAGAGUGUUCUAGUCUGAUGUAUG,0.494
CCCCAGUGGGGAGGUGACUGUGUUUCCCAGAGUGUGAGCCGCUCUCCUCCCCCUAAAAAGCUGACUCACUGUGAGUGACCUUGGGCAAGUUCCCAAACCUCCUUGUGCCU,0.34
CCAGCAUGCCGAGCACAAUGUCCACCCACUUGUGCUGUGUAGACUGUUGCAUACAGCUGAGUACAGUGAGCGGCUUCUGCACAUAUUUAACUCUCCCUAUAUAUUAACUC,5.37
AGCCACCCUUUGCCCAAACCCUGGUAGCUCGGGGAAGCUUGGCUUAAGGCUGCACGCCUCCAAUCCCCCAAAGGGUAGGAUCCUGGCUGGGUCCAGGGUUCCUCUGAUUU,0.221
CAGCAACAAAACCUAGUCCUCUUAGACGUUCUUGCGCUUUGAUUUUUUUAGGGCGUGUGCCCUGUUACACUUAUAGGGCCUAGGAUGCUUGUGUUGAGUAAAAAGGAGAU,0.473
UUUUGGGAAUUCAGACUGUGGAAACAUCGGACUUCCCUUUGCCCUUCCUCAACUUAGUGGCAAAGCCCUGUAUGGAUACUUGUAGGUGCGGGUGAUCCUCAAGGCCAUGC,0.522
UUAACAAGUAUUGUAGGCACGGUGGAUUUUUUUGAAAUACCCAUGUGUCCAAUAGCAAGUUAAGGAACCUAGCGCAUCAAAUUUUGUUUUCUUCAUUCAUUUGGAACCUU,1.14
CCUGCCCCUGGACACCUGCUGACAGCUCCCACACAGAACAGUCUGAGGUGAUGCUGGCUACAGCCCUGGCAGCCCAUGGCAACUCAAAGUGCCUUCCAAACCAAACUGCC,0.386
CCAACAGGGGAUGCUCAUCACUGGAGACUGCGACUGGGAAGAACACUGCCCCCUCCCUCGGGUUGGGUGGCCCAGCCAGCUGGCCAGCCUCCACUCCCACUCUGCCAGAC,0.342

# Set 3
# Target: PABPC1L2, full length, GST fusion (mouse, UniProt A0ABA7IW68)
# Method: RNAcompete
# Molecule type: RNA
# Sample: in vitro
# Concentration: 20 nM
# Notes: 7-mer, probes averaged, single round
# Reference: mean of 7-mers
# Reading: higher = stronger binding
# Construct (chain): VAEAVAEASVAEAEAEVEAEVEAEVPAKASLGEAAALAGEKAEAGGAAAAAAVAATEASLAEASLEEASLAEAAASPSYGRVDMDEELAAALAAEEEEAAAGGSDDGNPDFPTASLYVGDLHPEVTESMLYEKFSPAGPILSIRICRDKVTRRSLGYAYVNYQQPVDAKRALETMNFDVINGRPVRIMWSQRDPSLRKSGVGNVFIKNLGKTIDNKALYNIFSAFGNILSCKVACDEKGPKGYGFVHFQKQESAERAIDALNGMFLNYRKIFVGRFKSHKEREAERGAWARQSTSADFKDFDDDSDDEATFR
Strand,7-mer Z-score
GACUUGG,0.095
CUCAUUA,-0.139
UCGUGCG,-0.275
CCCUUAA,-0.257
CGAAUUU,-0.151
ACUAGCG,-0.119
GUGUCUG,-0.266
AACAAGG,0.972
GUCGUGU,-0.411
AUUAUAU,-0.0174
UCCACGC,-0.219
ACGUAAU,-0.11
UAAGAUC,-0.11
CCUAGGU,-0.226
AUUUACU,0.0732
UGACGAA,0.131
UCCGGCU,-0.425
CCCCAUG,-0.358
ACGACGU,-0.0536
GGUGUAC,-0.132
CGAUUAG,-0.238
CUUGUGU,-0.373
GCAGAAU,0.0478
CCUCUCC,-0.421
CUAUAAA,2.73

# Set 4
# Target: Histone acetyltransferase KAT6A, winged helix 2, GST fusion (KAT6A, Homo sapiens, UniProt Q92794, residues 85-181)
# Method: protein binding microarray
# Molecule type: double-stranded DNA, one strand shown
# Sample: in vitro
# Concentration: not given
# Notes: 8-mer, flanks averaged, mean of 2 arrays, mostly near background
# Reference: not given
# Reading: higher = stronger binding
# Construct (chain): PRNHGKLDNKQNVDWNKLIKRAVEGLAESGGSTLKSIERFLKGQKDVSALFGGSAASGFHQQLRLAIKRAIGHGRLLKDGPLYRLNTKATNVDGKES
Strand,E-score
AGAAATGC,0.0514
CGGTTACA,0.0877
AACGCCTA,-0.124
CGGCATCC,0.16
GGTTAACA,-0.00035
AGATCCGA,0.0695
ACATAGCG,-0.0768
GGGTGGAC,0.0621
GCAGAACA,0.0122
GTGGCCCA,0.115
ACGGGTAC,-0.138
ACCTGACG,0.0255
GCCAACTA,-0.0786
GTAAATAC,-0.0444
GAGGACTA,-0.138
CTACTCAA,0.107
AGCGCTTA,-0.00992
GACAGATA,-0.00196
GGGTCAGA,-0.0212
CATCAGGC,0.00254
ACTCAATG,-0.0446

# Set 5
# Target: RING finger protein unkempt homolog, zinc fingers 1-6, GST-SBP tag (UNK, Homo sapiens, UniProt Q9C0B0, residues 30-357)
# Method: RNA Bind-n-Seq
# Molecule type: RNA
# Sample: in vitro
# Concentration: not given
# Notes: RNA with constant flanks, human and mouse sites, ends assumed
# Reference: input RNA pool
# Reading: higher = stronger binding
# All sequences stand within: GGGAGUUCUACAGUCCGACGAUC … CAACAGAGGAUUGAGCAUCA
# Target sequence (chain): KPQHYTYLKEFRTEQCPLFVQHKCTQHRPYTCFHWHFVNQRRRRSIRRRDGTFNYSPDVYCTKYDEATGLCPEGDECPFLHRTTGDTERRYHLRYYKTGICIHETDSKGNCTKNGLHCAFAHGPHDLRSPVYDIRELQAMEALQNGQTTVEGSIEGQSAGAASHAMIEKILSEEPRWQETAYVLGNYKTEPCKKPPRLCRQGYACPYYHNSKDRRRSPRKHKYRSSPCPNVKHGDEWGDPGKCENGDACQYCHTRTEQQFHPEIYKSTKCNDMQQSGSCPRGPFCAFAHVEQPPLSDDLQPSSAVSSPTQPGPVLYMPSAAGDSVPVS
Strand,bound/input enrichment
AGUGGAGAGUCCCUUUCAGCCAACAUCGAGUGGAAGCUGACAUUGUGGACCACCUGUGGUCUCUCCAAGGAUGGCUACGGAGGCUGGCAGGACUUGGUGUGCCUGGGAGGUGCUCAGGCC,0.0616 ratio
GGACAGUCUCAGCCCCCCCUCCAACAGAAUCAGACUUCAUCGCCUGAUUCGUCCAAUGAAAAUUCCCCUGCAACUCCUCCUGAUGAGCAAGGUCAAGGUGAUGCUCCUCCACAGAUUGAA,0.287 ratio
CUUAGACAGCUCGUUGAUCUUUUAACCCCUAAGAUCCAUCAGGAAGUAGAAGAACAGAAACUACAUAAAGCAGCUUGCUUGAUUCAAGCCUAUUGGAAAGGUUUCCAGACCAGAAAGAGA,0.207 ratio
AGAGCUAUCCAGGGAGGAACAUCACAUCAUUUAGGGCAGAAUUUUUCCAAAAUGUUUGAAAUCGUUUUUGAAGAUCCAAAGAUACCAGGAGAGAAGCAAUUUGCCUAUCAAAACUCCUGG,0.204 ratio
CUAAAGGCAGAAAACCUGCUCCUGGAUGCUGAUAUGAACAUCAAGAUUGCAGACUUUGGCUUUAGCAACGAAUUCACCUUUGGGAACAAGCUGGAUACUUUCUGUGGCAGUCCUCCUUAU,0.164 ratio
AAUAGAAGAUCUUCGACAGUGCCUGAACAGGUACAAGAAAAUGCAAGACACGGUGGUACUGGCCCAAGGUAAAAAAGGCAAAGAUGGAGAAUAUGAAGAGCUGCUCAAUUCCAGUUCCAU,0.404 ratio
CCCGAGAUAUGCACCCAAUGUCCAGGGAGCGUGCAAAAUUUGUCAAAAGUGGCCUUUUAUUGUAAAACGACACGAGAGCUAAUGCUGCAUGCCCGUUGCUGCCUGAAUCAGAAGGGCACC,0.122 ratio
UGGCCUGUGGCUGUGUGUUCAAACACCCCUCCCACAGGACUCACUUUGUCCCAACAAUUCAGAUUGCCUAGAAAUACCUUUCUCUUACCUGUUUGUUAUUUAUCAAUUUUUCCCAGUAUU,1.04 ratio
UAAUUUAUUUGUAUCAAUCCCCGCUUUAUAUUAAACGGCAACAAAAAAGCACAGAAAAUUUAGCACUUUAAUAAUUUUGACAUUAUUGUACAGCUCUUAAGUAUUUUCAAGACAGCACUA,9.95 ratio
GUUUCUAUAGUGCUGUUGGGGACUGCUUUGCUUCUGUGUCCUACCCAGGUUUGUCUACACACUCGGACAGUACUUUACACUAUAUAGUUCAGUUCUCAGACUUGUCUCUAUCUUGCCUCU,0.362 ratio
UCAAAAAGUGGAGGCUCUUAUGGUACUACAUGGGGUGCCUAUGGUUCUAAUUACUCUGGAGACAAAUGUUCAGGCCCUAAUGGCCAAGCUAAUGGUGACACUGUGAAUGCAACUCUAAUG,0.175 ratio

# For quick reference, copied from above (set 3):
Strand,7-mer Z-score
UCCACGC,-0.219
ACGUAAU,-0.11
UAAGAUC,-0.11
CCUAGGU,-0.226
AUUUACU,0.0732
UGACGAA,0.131
UCCGGCU,-0.425
CCCCAUG,-0.358
ACGACGU,-0.0536
GGUGUAC,-0.132
CGAUUAG,-0.238
